Assay results gathered from unrelated publications.
Lines come from different studies, so protocols differ. Values joined by “and” are separate records of one study, mostly repeats; a detail may differ. Numbers after ± are the reported error.

Structure (SMILES)	tested on	assay	test system	conditions	scale	measurement	result
Cc1n[nH]c2ccc(-c3cc(OC[C@@H](N)Cc4ccccc4)cnc3-c3ccoc3)cc12		kinase binding, competitor, MIB/MS competition, refers to: MKK2	Candida albicans cell lysate	1 µM	relative to: DMSO	log2 fold change	-0.183
CNCc1cc(-c2ccccc2F)n(S(=O)(=O)c2cccnc2)c1		oesophageal lesions	rat reflux oesophagitis	oral, single dose		ED50	1.2 mg/kg
COc1ncnn2ccc(-c3cnc4nc(C)n(Cc5nnc([C@@H](C)F)o5)c4c3)c12			Homo sapiens, relapsed or refractory AML or MDS	dose not given, responding patients		median duration of response	164 days
COc1ccc([C@@H](O)c2cc(-c3ncnc4cc(N5CCOCC5)ccc34)c(F)cc2Cl)nn1		RECIST version 1.1	patients, advanced solid tumours	400 mg twice daily, together with: avelumab	relative to: patients	disease control rate	1%
C[C@H](Oc1ccc(Br)cc1-c1ccon1)C(=O)O		muscle velocity recovery cycle	human, tibialis anterior muscle	200 mg once daily, first response peak at 30 Hz, multiple ascending dose		difference from placebo	0.747%
Cc1cc(Nc2ncc(Cl)c(Nc3ccccc3S(=O)(=O)C(C)C)n2)c(OC(C)C)cc1C1CCNCC1			patients with advanced solid tumours	dose not given		median overall survival	10.2 months
O=C(O)CCc1nccc2c1[nH]c1ccccc12			male mouse, acute hyperuricaemia model, serum	oral, 2 mg/kg, 4 h		serum uric acid	484 ± 86.3 µM
CN(C)C(=O)c1cc2cnc(Nc3ccc(N4CCNCC4)cn3)nc2n1C1CCCC1			HR+/HER2− advanced breast cancer patients	dose not given, no (neo)adjuvant hormone therapy		median PFS2	50.5 months
O=C(COc1ccc(Cl)cc1)NC12CC(c3nnc([C@H]4C[C@@H](OC(F)(F)F)C4)o3)(C1)C2			healthy human, PBMC	45 mg once daily, day 14, 4 h post-dose, median, together with: sodium arsenite ex vivo	relative to: baseline	ATF4 protein change	-44.5%
CO[C@H]1CC[C@H](N2C(=O)CNc3ncc(-c4ccc(C(C)(C)O)nc4)nc32)CC1		flow cytometry	stimulated B cells, human, blood	60 mg single dose, 5 h, median	relative to: baseline	pS6RP change from baseline	-73.3%
C[C@H](NC(=O)c1c(C(F)F)nn(C)c1Oc1cccc(C(F)(F)F)c1)c1ccc(C(=O)O)cc1		irRECIST	human, advanced tumours	125 mg	best overall response	complete response	0%
COc1cc(Nc2ncc3c(n2)-c2ccc(Cl)cc2C(c2c(F)cccc2OC)=NC3)ccc1C(=O)O			mouse, KT-10 Wilms tumour xenograft	oral, 2.6 mg/kg, day 7	relative to: vehicle	relative tumour volume T/C	2.39
N#CCC1CCN(c2nc(Nc3ccc(N4CCC(O)CC4)cc3)c3c(=O)[nH]ncc3n2)CC1		Olink multiplex	human, serum	40 mg, day 29, unit not given	relative to: baseline	osteopontin level change	-1.28
O=c1cc(-c2ccc(O)c(O)c2)oc2cc(O)cc(O)c12		Western blot, refers to: MRP2	duck, small intestine	dose not given	relative to: untreated	protein level	decreased
CN[C@@H]1COc2c(S(=O)(=O)NC(=O)Nc3c4c(cc5c3CCC5)CCC4)cnn2C1		refers to: IL-18	human participants, whole blood ex vivo	900 mg single dose, 48 h, IL-18, circulating, adjusted for, together with: LPS/ATP	relative to: baseline	inhibition	50.7%
[Cl-].[Cl-].[Pt+2].[Ru+2].c1ccc(-c2nc3cc4ccccc4cc3nc2-c2ccccn2)nc1.c1cnc2c(c1)ccc1cccnc12.c1cnc2c(c1)ccc1cccnc12		chloride substitution, UV-vis kinetics	aqueous buffer	pH 7.2, 35 °C, second substitution step, together with: guanosine 5'-monophosphate		activation free energy	20.3 ± 1.2 kcal/mol
C[C@@H](NC(=O)N1C(=O)[C@H](Cc2ccnc(N)c2)[C@H]1C(=O)O)C1CCCCC1			human	iv infusion, 2.25 mg/kg/h, 24 h		time to aPTT Emax	96 h
O=S(=O)(NCCNC/C=C/c1ccc(Br)cc1)c1cccc2cnccc12		embryonic development	mouse zygotes	20 µM, 96 h post-hCG		two-cell embryos	35.3% and 63.2% and 35%
Cc1nn(-c2nc3c(F)cc(F)cc3s2)c(O)c1C(c1ccc(C(F)(F)F)cc1)c1c(C)nn(-c2nc3c(F)cc(F)cc3s2)c1O			mouse, cerulein-induced acute pancreatitis, serum	25 mg/kg		serum amylase activity	153 mOD/min and 132 mOD/min and 129 mOD/min and 94.3 mOD/min and 183 mOD/min and 68.3 mOD/min and 86 mOD/min
Cn1cc(Nc2nccc(-c3ccc4c(c3)CN(C3COC3)CC[C@H]4NC(=O)c3cn(C(C)(C)C)nn3)n2)cn1		refers to: Pancreatic Adenocarcinoma Signaling	splenic B cells, mouse	in vivo, 30 mg/kg, IgD-activated B cells	relative to: vehicle, positive = activation	pathway activation z-score	1.39
CC1(C)CCC(CN2CCN(c3ccc(C(=O)NS(=O)(=O)c4ccc(NCC5CCOCC5)c([N+](=O)[O-])c4)c(Oc4cnc5[nH]ccc5c4)c3)CC2)=C(c2ccc(Cl)cc2)C1		cell killing	canine lymph node CD21+ B cells, dog 39	24 h		EC50	35.7 nM
COc1nnc2ccc(N3CCC(c4ccc(OCCN5CCN(C)C(=O)[C@H]5C)cc4)CC3)nn12			cancer patients, plasma	2 to 40 mg	relative to: predose	plasma MIP-1β level	decreased
COc1ccc(-c2cncc(N[C@@H](C)c3cccc(NC(=O)c4cncc(C)c4)c3)n2)cc1OC		refers to: rno-miR-361-5p	rat SU5416/hypoxia model, lung	dose not given	relative to: SU5416/hypoxia vehicle	fold change	1.04
CCOc1cc(/C=C2\CN(C(C)=O)CC3=C2OC(N)=C(C#N)C3c2ccc(O)c(OCC)c2)ccc1O (stereo not drawn)			rats, DMBA-induced mammary tumours	dose not given, day 21		tumour volume	0.15 ± 0.006 cm3
OC[C@H]1O[C@@H](c2ccc(Cl)c(Cc3ccc(O[C@H]4CCOC4)cc3)c2)[C@H](O)[C@@H](O)[C@@H]1O			Japanese type 1 diabetes patients	2.5 mg, day 28, 672 h	relative to: baseline	systolic blood pressure change	-0.7 mmHg
CC(C)NCC(O)c1ccc(O)c(O)c1 (stereo not drawn)			ventricular cardiomyocytes, C57BL/6 mouse	dose not given, 0.304 s		sarcomere length	1.72 µm

Structure (SMILES)	tested on	assay	test system	conditions	scale	measurement	result
O=C(O)/C=C/c1nccc2c3ccccc3n(Cc3ccc(C4CC4)cc3)c12			mouse, acute hyperuricaemia model	oral, 2 mg/kg		serum uric acid	390 µM
CC(C)C[C@H](NC(=O)[C@@H](Cc1c[nH]c2ccccc12)NC(=O)[C@H](Cc1ccc(O)cc1)NC(=O)[C@H](CO)NC(=O)[C@H](Cc1c[nH]c2ccccc12)NC(=O)[C@H](Cc1c[nH]cn1)NC(=O)[C@@H]1CCC(=O)N1)C(=O)N[C@@H](CCCNC(=N)N)C(=O)N1CCC[C@H]1C(=O)NCC(N)=O			Chinese children, central precocious puberty, serum	intramuscular, 22.5 mg day 1, month 6, month 9		basal LH level	0.35 IU/L
CN(C)C(=O)c1cc2cnc(Nc3ccc(N4CCNCC4)cn3)nc2n1C1CCCC1		RNA-seq GSEA, refers to: HALLMARK_DNA_REPAIR	MB002 tumour	concentration not given, in vivo	relative to: vehicle, direction not given	normalized enrichment score	1.81
O=P(O)(O)C(Cl)(Cl)P(=O)(O)O			Mus musculus, sham-operated, meninges	concentration not given, day 7	relative to: total area	Iba1-positive area	0.62% and 0.56% and 0.45%
NCc1cc2c(cc1F)C(=O)N(C1CCC(=O)NC1=O)C2 (stereo not drawn)		degrader, Western blot, refers to: GSPT1	cynomolgus monkey, PBMC	oral, 0.1 mg/kg, 6 h		degradation	~80%
NC(=O)c1cnc2[nH]ccc2c1N[C@@H]1[C@@H]2CC3C[C@H]1C[C@@](O)(C3)C2		CD8+ naive T cells, flow cytometry	Japanese humans, peripheral blood	200 mg single dose	relative to: baseline	percent change	-0.97%
Cc1c(Cl)c(C)[n+]([O-])c(Cl)c1-c1noc(-c2cc(O)c(O)c([N+](=O)[O-])c2)n1		glucuronidation, substrate	human liver microsomes			Vmax	25 ± 1.5 pmol/min/mg protein
O=C(O)CNC(=O)Cc1ccccc1			ventricular cardiomyocytes, C57BL/6 mouse	dose not given, 0.024 s		sarcomere length	1.72 µm
O=C1Nc2cc3[nH]nc(-c4ccncc4)c3cc2CN1Cc1ccccc1		RECIST v1.1	human, relapsed or refractory advanced solid tumours	intravenous, 0.45 mg/kg, pooled schedules		partial response, best response	0%
C[C@H]1C[C@H]2CSC(N)=N[C@@]2(c2nc(NC(=O)c3ccc(OC(F)F)cn3)cs2)CO1		refers to: Aβ1-40	healthy adults, plasma	275 mg once daily, day 10	relative to: placebo	percent change from baseline	-86.8%
COc1cc2nccc(Oc3ccc(NC(=O)NC4CC4)c(Cl)c3)c2cc1C(N)=O		PK/PD model bootstrap median	Thyroid cancer patients, differentiated, radioiodine-refractory			rate constant of resistance appearance	0.248 /week
COc1cc2cc(-c3ccc(CC(=O)Nc4cc(C(C)(C)C(F)(F)F)no4)cn3)cnc2cc1OC		RECIST v1.1	RET-altered advanced solid tumour patients	oral, 20 mg once daily, phase I		objective response rate	0%
Cn1cc(Nc2nc(N)nc(-c3cccc(-n4ccc5cc(C6CC6)cc(F)c5c4=O)c3CO)n2)cn1		CD63 upregulation, refers to: CD63	basophils (CD123+ HLA-DR-), healthy humans, whole blood ex vivo	50 mg twice daily (multiple dose), 336 h, together with: anti-IgE		inhibition	50.8%
O=C(O)CCc1nccc2c3ccccc3n(Cc3ccc(Br)c4ccccc34)c12			mouse, acute hyperuricaemia model, serum	oral, 2 mg/kg, individual animal data		serum uric acid	597 µM and 295 µM and 178 µM and 378 µM and 278 µM
N#Cc1ccc2c(c1)[C@H]1CCCN(C(=O)c3ccc4[nH]cnc4c3)[C@H]1C2			T2DM patients with overweight or obesity, plasma	oral, 40 mg, day 15 (360 h), multiple dosing, mean		plasma 1,5-anhydroglucitol	11.3 µg/mL
CCCCCCCCOC(=O)C(=O)CCC(=O)O	OCI-Ly1			1 µM, 120 h		viability	111%
[Cl-].[Cl-].[Pt+2].[Ru+2].c1ccc(-c2nccnc2-c2ccccn2)nc1.c1cnc2c(c1)ccc1cccnc12.c1cnc2c(c1)ccc1cccnc12		chloride substitution, UV-vis kinetics	aqueous buffer	pH 7.2, 35 °C, second substitution step, together with: L-methionine		activation free energy	24.4 ± 1.67 kcal/mol
N#Cc1ccn2c(-c3ccncc3)c(-c3ccc(F)cc3)nc2c1		kinase binding, competitor, MIB/MS competition, refers to: SHA3	Candida albicans cell lysate	100 nM	relative to: DMSO	log2 fold change	0.0105
O=C(NS(=O)(=O)c1ccccc1)c1cc2ccccc2n1Cc1ccc(Br)c2ccccc12			mouse, acute hyperuricaemia model, serum	oral, 2 mg/kg	relative to: vehicle model	serum uric acid decrease	82.5%
OC(CCN1CCCCC1)(c1ccccc1)C1CC2C=CC1C2 (stereo not drawn)		resting-state EEG	healthy elderly humans	oral, 2 mg, eyes open, LS mean	relative to: baseline	change in EEG Alpha1-power Fz-Cz	26.4%
Cn1cc([C@H]2C[C@H]3CSC(N)=N[C@@]3(c3ccc(F)cc3F)CO2)cn1		refers to: Aβx-40	Mus musculus wild-type, cerebrospinal fluid	subcutaneous, 10 mg/kg, 13 h		Aβ40 level	1.56 ng/mL
CCc1oc2ccccc2c1C(=O)c1cc(Br)c(O)c(Br)c1			male mouse, acute hyperuricaemia model, serum	oral, 2 mg/kg, 4 h		serum uric acid	283 ± 154 µM
Cc1c(C)c2c(c(C)c1O)CC[C@@](C)(CCC[C@H](C)CCC[C@H](C)CCCC(C)C)O2		Fe3+ reduction, ferricyanide reduction		30 µg/mL		absorbance	1.012 ± 0.004
CC(C)[C@H](NC(=O)[C@H](Cc1ccc(O)cc1)NC(=O)[C@H](Cc1ccc(O)cc1)NC(=O)[C@@H]1CCCN1C(=O)[C@H](CCC(=O)O)NC(=O)[C@H](CCC(=O)O)NC(=O)[C@H](Cc1c[nH]c2ccccc12)NC(=O)[C@@H]1CCCN1C(=O)[C@@H](NC(=O)[C@H](CCC(N)=O)NC(=O)c1ccc2c(c1)C(=O)OC21c2ccc(O)cc2Oc2cc(O)ccc21)C(C)C)C(=O)N[C@H](C(=O)N[C@@H](CCCCN)C(=O)N[C@@H](CCCCN)C(=O)N[C@@H](CO)C(=O)N[C@@H](CO)C(=O)NCC(=O)NCC(N)=O)C(C)C		nerve discrimination	head and neck surgery patients	500 mg	relative to: white light	surgeons rating very much improved	7.1%
[Mn+2]		flow cytometry	CD4-low T cells from PBMC, BALB/c mouse	dose not given	relative to: no Mn2+	CD18-low cell fraction	56.6 and 83 and 66.1 and 77 and 77.2 and 71 and 79.5 and 64.5
